Results pooled from the literature.
Compare with care: the assays were run in different laboratories. Values joined by “and” are separate records of one study, mostly repeats; a detail may differ. Numbers after ± are the reported error.

COc1ccccc1-c1n[nH]c2nc(NC3CCN(C(=O)Cc4ccc(F)cc4F)CC3)ncc12
relative abundance (bead binding, competition bead pull-down, refers to: LINJ.31.3250; Leishmania donovani extract; 10 µM; baseline: vehicle): 1.02

O=C(O)c1ccc(-c2nc(-c3ccccc3Cl)c3sccn23)cc1
splenic vWF+ megakaryocytes (mouse, spleen; dose not given): 15 per high-power field and 19 per high-power field

COc1ccccc1-c1n[nH]c2nc(N[C@H]3CC[C@H](NS(=O)(=O)CC(C)C)CC3)ncc12
relative abundance (bead binding, competition bead pull-down, refers to: LINJ.14.1540; Leishmania donovani extract; 10 µM; baseline: vehicle): 1.27

O=[N+]([O-])[O-].O=c1c(C=NN=C([S-])Nc2ccccc2)coc2ccccc12.[Cu+2].c1cnc2c(c1)c1nccnc1c1cccnc12
nicked circular DNA form (DNA cleavage; supercoiled pUC19 DNA; 100 µM, 4 h, 37 °C, no reducing agent, with: DNA 40 µM): 16%

C(=N\Cc1cc(C/N=C/c2cccs2)cc(-c2cc(C/N=C/c3cccs3)cc(C/N=C/c3cccs3)c2)c1)/c1cccs1
IFN-gamma level (hACE2 mice, bronchoalveolar lavage fluid; dose not given; baseline: control): decreased

CC(C)C[C@H](NC(=O)CN)C(=O)N[C@@H](CCCCN)C(=O)N[C@@H](CCCCN)C(=O)N[C@@H](CS)C(=O)NCC(=O)N[C@@H](CCCCN)C(=O)N[C@@H](CCCCN)C(=O)N[C@@H](CCCCN)C(=O)N[C@@H](CC(C)C)C(=O)N[C@@H](CCCCN)C(=O)N[C@@H](CCCCN)C(=O)N[C@@H](CS)C(=O)O
ABTS radical scavenging (absorbance at 734 nm; 1 mg/mL, 5 min, room temperature): 0.898 fraction (0-1)

CC1(C)C(NC(=O)C(=NOC2(C(=O)O)CC2)c2csc(N)n2)C(=O)N1OS(=O)(=O)O (stereo not shown)
EC50 (teratogenicity; zebrafish embryo; microinjection, injected 6 hpf, scored 5 dpf): > 1.69 nmol/embryo

CN[C@@H]1C[C@H]2O[C@@](C)([C@@H]1OC)n1c3ccccc3c3c4c(c5c6ccccc6n2c5c31)C(=O)NC4
late apoptotic or necrotic cells (annexin V flow cytometry; pancreatic islet cells, mouse; 1 µM, 24 h): 0%

CCc1nnc(-c2c(OC)cc(-c3cnc4cc(-c5cnn(C)c5)ccn34)cc2OC)o1
mineralizing surface/bone surface (histomorphometry; male C57BL/6J mouse, tibia; oral gavage, 40 mg/kg once daily, 3 wk): 0.779 ± 0.09%

CCCC[C@@H]1NC(=O)[C@H](Cc2ccc(O)cc2)NC(=O)[C@@H]2CCCN2C(=O)[C@H](CC(=O)O)NC(=O)[C@H](C)NC(=O)[C@H](Cc2ccccc2)NC(=O)[C@@H]2CSCCC(=O)N3CN(CN(C3)C(=O)CCSC[C@@H](C(=O)N[C@@H](C)C(N)=O)NC1=O)C(=O)CCSC[C@H](NC(C)=O)C(=O)N[C@@H](CC(C)(C)C)C(=O)N1CCC[C@H]1C(=O)N[C@@H](CCC(=O)O)C(=O)N[C@H](CCCCNC(=O)CCc1cn(CCOCCOCCOCCN(CCOCCOCCOCCC(=O)N[C@H]3CSCCC(=O)N4CN5CN(C4)C(=O)CCSC[C@H](NC(=O)[C@@H](CC(=O)O)NC(=O)[C@H](Cc4cccc6ccccc46)NC(=O)[C@@H]4CCCN4C3=O)C(=O)N[C@@H](CCSC)C(=O)N[C@@H](CCCCNC(=N)N)C(=O)N[C@@H](CC(=O)O)C(=O)N[C@@H](Cc3c[nH]c4ccccc34)C(=O)N[C@@H](CO)C(=O)N[C@@H]([C@@H](C)O)C(=O)N3CCC[C@H]3C(=O)N3C[C@H](O)C[C@H]3C(=O)N[C@@H](Cc3c[nH]c4ccccc34)C(=O)N[C@H](C(N)=O)CSCCC5=O)CCOCCOCCOCCn3cc(CCC(=O)NCCCC[C@H]4NC(=O)[C@H](CCC(=O)O)NC(=O)[C@@H]5CCCN5C(=O)[C@H](CC(C)(C)C)NC(=O)[C@@H](NC(C)=O)CSCCC(=O)N5CN6CN(C5)C(=O)CCSC[C@H](NC(=O)[C@H](Cc5ccc(O)cc5)NC(=O)[C@@H]5CCCN5C4=O)C(=O)N[C@@H](Cc4ccccc4)C(=O)N[C@@H](C)C(=O)N[C@@H](CC(=O)O)C(=O)N4CCC[C@H]4C(=O)N[C@@H](Cc4ccc(O)cc4)C(=O)N[C@@H](CCCC)C(=O)N[C@H](C(=O)N[C@@H](C)C(N)=O)CSCCC6=O)nn3)nn1)C(=O)N1CCC[C@H]1C(=O)N[C@@H](Cc1ccc(O)cc1)C(=O)N2
mRNA level (NanoString, refers to: Il12a-mRNA; mouse bearing MC38-Nectin-4 tumour, circulating white blood cells; 5 mg/kg, 24 h after dosing, unit not given; baseline: vehicle): 1.84

CC(C)C[C@H](NC(=O)[C@H](CCC(=O)O)NC(=O)[C@H](Cc1ccccc1)NC(=O)[C@@H]1CCCN1C(=O)CNC(=O)OCc1ccccc1)C(=O)N[C@@H](CCC(=O)O)C(=O)N[C@@H](CCCNC(=N)N)C(=O)N[C@@H](CCCNC(=N)N)C(=O)N[C@@H](Cc1ccccc1)C(=O)N[C@@H](CCCCN)C(=O)N[C@@H](CCC(N)=O)C(=O)N[C@@H](CCC(N)=O)C(=O)O
ZO-1+ CD31+ endothelial cells (mouse tumour model, tumour vessels; dose not given): -22%

CCN(Cc1ccccc1)C(=O)CCc1nc(CN2CCN(C(=O)Cc3ccc(OC)c(OC)c3)CC2)no1
action potential threshold (current clamp; DRG neurons, naive rat; 10 µM): -4.56 ± 1.88 mV

NNC(=O)c1ccccc1
normalised absorbance (hydrazine ligation kinetics, absorbance; concentration not given, 45 s, with: 2-formylphenylboronic acid): 0.78

O=C1NC2(CC2)COc2ncc(F)cc2[C@H]2COCCN2c2ccn3ncc1c3n2
organ-to-body weight ratio (Sprague-Dawley rat, male, adrenals; oral, 2.5 mg/kg/day, 4 weeks dosing, end of recovery): 0.011 ± 0.001%

CC(C)CC1NCCc2cc(O)c(O)cc21 (stereo not shown)
IC50 (DPPH scavenging, absorbance; 30 min, dark): 21.7 µM

N#CCc1ccc(O)cc1
radical scavenging (ABTS radical; 300 µg/mL): 15.8 ± 1.67%

CC(C)C[C@@H]1NC(=O)[C@@H](Cc2c[nH]c3ccccc23)NC(=O)[C@H](CCCNC(=N)N)NC(=O)[C@@H](CCC(=O)O)NC(=O)[C@H](CCC(N)=O)NC(=O)[C@@H](CCC(=O)O)NC(=O)[C@H](CCCNC(=N)N)NC(=O)[C@@H](Cc2c[nH]c3ccccc23)NC1=O
cytokine level (refers to: IL7; LDLr-/- mouse on Western diet, liver; dose not given, 4 weeks): 230 ± 110 pg/g tissue

C[C@H](NCc1ccc(-c2ccc(C(F)(F)F)cc2)cc1)C(N)=O
step-through latency (passive avoidance, acquisition; APP/PS1 mice; oral, 10 mg/kg, 672 h, 4 weeks dosing): 49.9 ± 21.5 s

CO[C@H]1CC=C2CCN3CCC4=C(CC(=O)CC4)[C@]23C1
ethanol intake (Wistar rats, intermittent ethanol access; subcutaneous, 6 mg/kg, 30 min after drinking onset): 1.2 ± 0.1 g/kg
